Measurements collected from several papers.
Target: Serine/threonine-protein kinase tousled-like 1 (TLK1, Homo sapiens, UniProt Q9UKI8)

The inhibition of `CN1CC[C@@H](COc2cnc(C#N)cc2-c2ccn3nc(NC(=O)C4CC4)cc3c2)C1` is reported as 9% (enzyme activity, inhibitor; 1 µM).
The remaining binding of `CC(C)=CC1OC(C)(C)C2C=C3C(=O)C(Cl)=CC(O)C3C3C(O)C4OC4C(=O)C132` (stereo not shown) is reported as 75% (cell-free assay, competition with immobilised ligand; 10 µM).
With `CCN1CCN(Cc2ccc(C(=O)Nc3ccc(C)c(NCc4cnc5[nH]ccc5c4OC)c3)cc2C(F)(F)F)CC1` the remaining binding was 94% (binding, competition with immobilised ligand; 1 µM).
`COc1cc(Nc2nccc(-c3cnn4nc(OC)ccc34)n2)cc(C(F)(F)F)c1` has a remaining binding of 90% (binding, competition with immobilised ligand; 1 µM).
`C=CC(=O)N1CCc2ccc(-n3c(=O)ccc4cnc5ccc(-c6cnn(C)c6)cc5c43)cc21` gave a remaining binding of 77% (KINOMEscan; 1 µM; relative to: DMSO control).
With `C=CC(=O)N1CCCC(n2c(=O)c3ncccc3n(Cc3ccc(Oc4ccccc4)cc3)c2=O)C1` (stereo not shown) the remaining binding was 95% (cell-free assay, competition with immobilised ligand; 1 µM).
With `CNC1C[S+]2CC[S+]3CC[S+](C1)[Ru-4]321([N]=C=S)[n]2c3ccc(OC)cc3c3c4c(c5cc(F)c[n+]1c5c32)C(=O)NC4=O` (stereo not shown) the remaining binding was 88% (KinomeScan; 0.1 µM; relative to: untreated).
`O=C(Cc1ccc(OCc2ccccc2)cc1)NC1(C(=O)O)CCN(C(=O)c2ccc(-c3cccc(Cl)c3)cc2)CC1`: “activity vs control” 99% (enzyme activity, inhibitor; 10 µM).
With `CNC(=O)C1CCN(c2cc(C)c(F)cc2NC(=O)c2ccc(-c3cc(O)ccc3C)c(C)c2)CC1` the remaining binding was 76% (binding, competition with immobilised ligand; 1 µM).
The remaining binding of `Nc1ncc2c(n1)-c1c([nH]c3ccc(C4=CCOCC4)cc13)CCC2` is reported as 100% (binding, competition with immobilised ligand; 1 µM).
`NC(=O)C[C@H]1CCc2sc3ncnc(O[C@H]4CC[C@H](N5CCOCC5)CC4)c3c21` has an inhibition of -3% (enzyme activity, inhibitor; 10 µM).
`Cc1ccc(C(=O)Nc2ccc(CN3CCN(C)CC3)c(C(F)(F)F)c2)cc1C#Cc1cnc2cccnn12` has an upper asymptote of 218 (target engagement, NanoBRET; human cells).
For `C=CC(=O)N1Cc2nc(-c3cc(-c4cc(Cl)cnc4Cl)c(F)cc3F)n(-c3ccncn3)c2C1`, the inhibition was -6.1% (cell-free assay, inhibitor; 1 µM).

Some of these lines once more:
With `C=CC(=O)N1CCCC(n2c(=O)c3ncccc3n(Cc3ccc(Oc4ccccc4)cc3)c2=O)C1` (stereo not shown) the remaining binding was 95% (cell-free assay, competition with immobilised ligand; 1 µM).
With `CNC1C[S+]2CC[S+]3CC[S+](C1)[Ru-4]321([N]=C=S)[n]2c3ccc(OC)cc3c3c4c(c5cc(F)c[n+]1c5c32)C(=O)NC4=O` (stereo not shown) the remaining binding was 88% (KinomeScan; 0.1 µM; relative to: untreated).
